Measured values collected from several papers.
Protocols differ between the studies behind these lines. Several values in a cell are separate wells, animals, samples, runs or records. ± gives the spread as reported.
Abhd6: Monoacylglycerol lipase ABHD6 (Abhd6, Rattus norvegicus, UniProt Q5XI64)
Chain of UniProt Q5XI64 (whole entry, looked up): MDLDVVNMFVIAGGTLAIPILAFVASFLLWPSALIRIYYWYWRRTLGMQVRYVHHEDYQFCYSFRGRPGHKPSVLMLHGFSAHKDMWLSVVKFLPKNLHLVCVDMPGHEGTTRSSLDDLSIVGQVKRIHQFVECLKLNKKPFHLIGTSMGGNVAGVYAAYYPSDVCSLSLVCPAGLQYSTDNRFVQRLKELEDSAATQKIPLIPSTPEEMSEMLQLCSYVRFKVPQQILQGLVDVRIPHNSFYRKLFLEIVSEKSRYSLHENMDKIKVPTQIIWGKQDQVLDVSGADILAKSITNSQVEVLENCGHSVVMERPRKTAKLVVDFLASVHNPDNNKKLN
qscR DNA-bound: qscR, DNA-bound (Pseudomonas aeruginosa, UniProt G3XD77)
Chain of UniProt P27361 (whole entry, looked up): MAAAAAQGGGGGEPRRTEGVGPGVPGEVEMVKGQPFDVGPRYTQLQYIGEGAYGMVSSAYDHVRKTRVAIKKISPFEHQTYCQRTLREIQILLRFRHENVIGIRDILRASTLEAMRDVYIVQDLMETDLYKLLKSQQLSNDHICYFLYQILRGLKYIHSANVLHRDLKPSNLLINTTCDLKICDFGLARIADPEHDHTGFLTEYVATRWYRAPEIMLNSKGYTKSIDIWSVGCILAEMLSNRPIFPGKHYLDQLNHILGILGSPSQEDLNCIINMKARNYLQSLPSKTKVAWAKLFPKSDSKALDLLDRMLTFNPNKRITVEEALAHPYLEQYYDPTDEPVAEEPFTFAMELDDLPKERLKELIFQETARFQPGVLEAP
Chain of UniProt Q9HB89 (whole entry, looked up): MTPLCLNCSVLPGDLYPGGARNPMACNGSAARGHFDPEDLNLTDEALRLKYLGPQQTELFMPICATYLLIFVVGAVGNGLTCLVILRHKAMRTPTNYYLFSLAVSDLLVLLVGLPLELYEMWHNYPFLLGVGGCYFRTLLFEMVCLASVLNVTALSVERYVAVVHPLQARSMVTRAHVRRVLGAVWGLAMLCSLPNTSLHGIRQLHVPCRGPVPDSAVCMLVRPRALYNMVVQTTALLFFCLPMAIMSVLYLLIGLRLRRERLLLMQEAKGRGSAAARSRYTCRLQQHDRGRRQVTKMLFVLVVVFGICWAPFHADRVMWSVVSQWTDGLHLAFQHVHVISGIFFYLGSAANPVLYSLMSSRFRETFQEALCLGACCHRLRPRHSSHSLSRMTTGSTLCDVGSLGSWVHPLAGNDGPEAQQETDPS
Chain of UniProt Q13224 (whole entry, unmodified, looked up): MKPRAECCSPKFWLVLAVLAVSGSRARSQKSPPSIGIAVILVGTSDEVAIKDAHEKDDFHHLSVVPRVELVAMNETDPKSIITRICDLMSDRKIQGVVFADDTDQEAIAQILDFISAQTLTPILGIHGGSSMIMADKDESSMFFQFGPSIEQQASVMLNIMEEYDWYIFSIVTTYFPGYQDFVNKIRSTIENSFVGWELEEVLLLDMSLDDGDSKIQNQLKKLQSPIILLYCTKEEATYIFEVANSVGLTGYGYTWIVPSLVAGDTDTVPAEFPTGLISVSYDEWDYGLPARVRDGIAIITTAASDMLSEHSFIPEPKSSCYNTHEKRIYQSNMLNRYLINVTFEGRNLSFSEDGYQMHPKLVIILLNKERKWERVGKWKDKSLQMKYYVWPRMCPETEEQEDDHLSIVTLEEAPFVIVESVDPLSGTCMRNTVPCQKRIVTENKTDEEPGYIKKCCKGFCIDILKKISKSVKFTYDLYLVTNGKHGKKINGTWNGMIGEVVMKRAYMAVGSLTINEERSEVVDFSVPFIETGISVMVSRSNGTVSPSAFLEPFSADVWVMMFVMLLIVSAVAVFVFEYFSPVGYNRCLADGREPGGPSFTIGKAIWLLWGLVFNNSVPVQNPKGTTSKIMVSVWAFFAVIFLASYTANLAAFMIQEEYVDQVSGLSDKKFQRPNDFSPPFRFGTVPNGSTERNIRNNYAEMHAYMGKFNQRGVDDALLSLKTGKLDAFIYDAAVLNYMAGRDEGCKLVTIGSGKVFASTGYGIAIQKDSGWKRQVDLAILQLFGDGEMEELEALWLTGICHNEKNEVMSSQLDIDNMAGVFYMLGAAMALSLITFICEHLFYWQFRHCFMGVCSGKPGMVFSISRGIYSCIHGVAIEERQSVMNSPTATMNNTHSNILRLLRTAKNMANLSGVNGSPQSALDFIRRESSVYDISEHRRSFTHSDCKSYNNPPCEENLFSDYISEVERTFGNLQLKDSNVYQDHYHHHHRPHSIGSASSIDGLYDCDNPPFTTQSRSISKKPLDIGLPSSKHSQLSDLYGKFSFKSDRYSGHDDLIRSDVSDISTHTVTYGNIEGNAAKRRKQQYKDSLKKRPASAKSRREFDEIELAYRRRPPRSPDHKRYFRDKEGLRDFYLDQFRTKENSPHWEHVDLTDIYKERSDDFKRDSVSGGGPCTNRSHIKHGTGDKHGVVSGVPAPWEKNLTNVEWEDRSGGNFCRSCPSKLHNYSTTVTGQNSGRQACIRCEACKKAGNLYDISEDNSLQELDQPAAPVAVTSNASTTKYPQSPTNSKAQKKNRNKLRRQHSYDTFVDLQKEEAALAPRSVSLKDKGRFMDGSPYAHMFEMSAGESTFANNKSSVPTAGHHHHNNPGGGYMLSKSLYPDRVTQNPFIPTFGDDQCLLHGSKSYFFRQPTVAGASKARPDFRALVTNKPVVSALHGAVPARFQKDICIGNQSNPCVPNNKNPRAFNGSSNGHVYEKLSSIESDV
Chain of UniProt O42275 (whole entry, looked up): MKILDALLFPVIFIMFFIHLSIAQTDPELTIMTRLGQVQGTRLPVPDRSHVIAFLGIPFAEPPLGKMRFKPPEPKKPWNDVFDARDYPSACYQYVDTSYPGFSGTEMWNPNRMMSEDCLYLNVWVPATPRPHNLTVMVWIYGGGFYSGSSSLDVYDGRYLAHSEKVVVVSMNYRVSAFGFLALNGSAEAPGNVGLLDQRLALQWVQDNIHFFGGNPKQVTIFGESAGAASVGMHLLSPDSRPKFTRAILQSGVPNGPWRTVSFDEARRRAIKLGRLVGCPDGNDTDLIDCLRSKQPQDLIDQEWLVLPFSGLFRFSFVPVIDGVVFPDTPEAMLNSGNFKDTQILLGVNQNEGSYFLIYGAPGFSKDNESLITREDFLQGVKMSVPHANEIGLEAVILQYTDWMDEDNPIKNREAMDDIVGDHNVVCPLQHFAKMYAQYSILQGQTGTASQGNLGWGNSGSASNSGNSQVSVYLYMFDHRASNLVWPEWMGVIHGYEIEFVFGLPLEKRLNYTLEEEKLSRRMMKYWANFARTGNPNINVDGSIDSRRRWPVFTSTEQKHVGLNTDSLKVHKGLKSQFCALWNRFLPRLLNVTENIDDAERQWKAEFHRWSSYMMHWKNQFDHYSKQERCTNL
Chain of UniProt P00942 (whole entry, unmodified, looked up): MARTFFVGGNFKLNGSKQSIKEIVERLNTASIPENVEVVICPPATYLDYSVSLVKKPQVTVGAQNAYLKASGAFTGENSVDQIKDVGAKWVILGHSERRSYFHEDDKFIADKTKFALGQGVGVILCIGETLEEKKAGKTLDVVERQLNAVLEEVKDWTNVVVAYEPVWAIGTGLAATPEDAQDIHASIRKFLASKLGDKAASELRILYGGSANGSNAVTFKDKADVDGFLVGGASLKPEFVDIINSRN
Chain of UniProt Q14416 (whole entry, looked up): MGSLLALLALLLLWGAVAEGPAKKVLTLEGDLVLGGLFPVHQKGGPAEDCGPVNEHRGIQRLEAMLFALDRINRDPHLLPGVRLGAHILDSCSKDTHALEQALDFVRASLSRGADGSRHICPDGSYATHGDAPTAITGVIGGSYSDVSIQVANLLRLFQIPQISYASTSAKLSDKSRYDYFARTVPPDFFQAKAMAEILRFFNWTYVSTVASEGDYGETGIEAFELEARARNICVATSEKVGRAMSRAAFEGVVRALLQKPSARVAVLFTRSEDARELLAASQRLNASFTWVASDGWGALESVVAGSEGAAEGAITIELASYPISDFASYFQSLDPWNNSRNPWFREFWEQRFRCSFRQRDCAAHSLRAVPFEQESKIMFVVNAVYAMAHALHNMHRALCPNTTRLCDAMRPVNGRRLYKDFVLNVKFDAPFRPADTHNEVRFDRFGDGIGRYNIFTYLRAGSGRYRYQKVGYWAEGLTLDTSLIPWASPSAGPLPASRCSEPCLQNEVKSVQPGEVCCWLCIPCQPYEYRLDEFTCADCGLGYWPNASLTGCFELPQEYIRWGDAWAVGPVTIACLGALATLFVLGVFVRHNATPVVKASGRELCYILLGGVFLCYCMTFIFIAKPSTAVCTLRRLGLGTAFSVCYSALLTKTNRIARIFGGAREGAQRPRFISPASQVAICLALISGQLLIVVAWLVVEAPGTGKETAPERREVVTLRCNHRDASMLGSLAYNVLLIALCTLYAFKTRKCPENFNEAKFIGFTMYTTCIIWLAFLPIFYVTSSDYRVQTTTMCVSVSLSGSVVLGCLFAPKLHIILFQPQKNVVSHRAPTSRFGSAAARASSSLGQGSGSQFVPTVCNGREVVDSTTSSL

SMILES	target	test	system	setting	scale	quantity	result
CN(C(=O)n1cnc(-c2ccc[n+]([O-])c2)c1)C1CCCCC1	Abhd6	enzyme activity, ABPP	rat, brain	oral, 30 mg/kg/day, 1 days	baseline: vehicle	fold change	-8.4
COc1ccc(Nc2nn3c(-c4ccccc4)ccnc3c2C(=O)Nc2ccc(Cl)cc2)cc1	α-glucosidase	SDS-PAGE densitometry, refers to: 45 kDa band	–	1 mg/mL	baseline: untreated enzyme, lower = more denaturation	band intensity	87.2 a.u.
CO/N=C(\C(=O)N[C@@H]1C(=O)N2C(C(=O)O)=C(COC(C)=O)CS[C@H]12)c1csc(N)n1	Penicillin-binding protein 2a (pbp2a, Streptococcus pneumoniae, UniProt Q8DNB6)	inhibitor	–	–	–	kinact/KI	16000 ± 4700 M⁻¹ s⁻¹
COc1cc(Nc2ncc(F)c(Nc3ccc4c(n3)NC(=O)C(C)(C)O4)n2)cc(OC)c1OC	PIK3C2B (Homo sapiens, UniProt O00750)	KINOMEscan	–	10 µM	–	inhibition	41%
COC(=O)[C@@]1(O)C[C@H]2O[C@]1(C)n1c3ccccc3c3c4c(c5c6ccccc6n2c5c31)C(=O)NC4	MAPK3 (Homo sapiens, UniProt P27361)	ADP-Glo	–	500 pM, together with: MBP substrate	–	kinase activity	104% and 91.6% and 60.2%
CC[C@H](C)[C@@H]1NC(=O)[C@H](Cc2c[nH]c3ccccc23)NC(=O)[C@H](Cc2ccc(O)cc2)NC(=O)CSC[C@@H](C(N)=O)NC(=O)[C@H]([C@@H](C)O)NC(=O)[C@H](CO)NC(=O)[C@H](C(C)C)NC(=O)[C@H](Cc2ccc(O)cc2)NC(=O)[C@H](CCCNC(=N)N)NC(=O)[C@H](Cc2ccc(O)cc2)NC(=O)[C@H]([C@@H](C)O)NC(=O)[C@H]([C@@H](C)O)NC(=O)[C@H](Cc2c[nH]c3ccccc23)NC(=O)[C@H](CO)NC(=O)[C@H](CC(N)=O)NC(=O)[C@H](CO)NC1=O	Vacuolar protein sorting-associated protein 26A/Vacuolar protein sorting-associated protein 35, Vps35 residues 1–172 (Homo sapiens, UniProt O75436+Q96QK1)	ITC	–	25 °C	–	ΔG	-8.8 ± 0.1 kcal/mol
C/C1=C2/[N-]C([C@H](CC(N)=O)[C@@]2(C)CCC(=O)NC[C@@H](C)OP(=O)([O-])O[C@H]2[C@@H](O)[C@@H](n3cnc4cc(C)c(C)cc43)O[C@@H]2CO)[C@]2(C)N=C(/C(C)=C3N=C(/C=C4N=C1[C@@H](CCC(N)=O)C\4(C)C)[C@@H](CCC(N)=O)[C@]\3(C)CC(N)=O)[C@@H](CCC(N)=O)[C@]2(C)CC(N)=O.[CH2-][C@H]1O[C@@H](n2cnc3c(N)ncnc32)[C@@H](O)[C@@H]1O.[Co+3]	MMUT (Homo sapiens, UniProt P22033)	cofactor	–	–	–	specific activity	67.1 ± 4.5 µmol/min/mg
CO[C@H]1C[C@H](O[C@H]2[C@H](C)O[C@@H](O[C@@H]3/C(C)=C/C[C@@H]4C[C@@H](C[C@]5(C=C[C@H](C)[C@@H](C6CCCCC6)O5)O4)OC(=O)[C@@H]4C=C(C)[C@@H](O)[C@H]5OC/C(=C\C=C\[C@@H]3C)[C@]54O)C[C@@H]2OC)O[C@@H](C)[C@@H]1O	NR1H3 (Homo sapiens, UniProt Q13133)	coactivator recruitment	–	0.4 µM	–	efficacy	2.47 ± 2.13%
O=C(CCCOc1ccc(Cl)cc1)NC1CCOC1=O (stereo not drawn)	qscR DNA-bound	DNA binding, ligand, EMSA	–	saturating ligand	–	Hill slope	1.9
COc1cc2nccc(Oc3ccc(NC(=O)c4cc5c(n(-c6ccccc6)c4=O)CCCC5=O)nc3)c2cc1OC	TYRO3 (Homo sapiens, UniProt Q06418)	cell viability, CellTiter-Glo	Ba/F3 expressing recombinant kinase	–	baseline: TYRO3 IC50 over AXL IC50	selectivity ratio	12
O=C(Nc1cnccc1Cl)N1CCN(Cc2ccc3c(c2)OC(F)(F)O3)CC1	GRM2 (Homo sapiens, UniProt Q14416)	radioligand binding	–	50 µM, together with: [3H]LY341495	–	inhibition of binding	4%
CCN(CC)CCCC[C@H](NC(=O)[C@H](CC(C)C)NC(=O)[C@H](C)NC(=O)[C@H](Cc1ccccc1)NC(=O)c1ccc(C(C)(C)C)cc1)C(=O)N[C@@H](CO)C(=O)OC	CHRM2 (Homo sapiens, UniProt P08172)	antagonist, radioligand binding	–	10 µM	baseline: control binding	specific binding	106%
CN1CCN(c2cc(-c3ccncc3)c(-c3ccc4ccccc4c3)nn2)CC1	NMUR1 (Homo sapiens, UniProt Q9HB89)	agonist, FLIPR	–	12.5 µM	–	activation	1%
COc1cc2c(NC3CCN(C)CC3)cc(-c3ccc(C)o3)nc2cc1OCCCN1CCCC1	DNMT1 (Homo sapiens, UniProt P26358)	enzyme activity	–	15.24 nM	–	inhibition	-8.18%
O=C(Nc1cccnn1)N1CCC(=Cc2cccc(Oc3ccc(C(F)(F)F)cn3)c2)CC1	Alpha-2-HS-glycoprotein (Ahsg, Rattus norvegicus, UniProt P24090)	competitive ABPP with azido-FP probe	rat brain soluble fraction	0.1 µM, unit not given	baseline: DMSO	probe labelling	-1.1
O=C(c1ccc(Cl)cc1)N1CCN2C(=O)N(OC(=O)N3CCOc4ccccc43)C(=O)C2C1 (stereo not drawn)	OVCA2 (Homo sapiens, UniProt Q8WZ82)	MS-based ABPP	SW-620 conditioned medium	10 µM, 1 h, 37 °C	baseline: compound over DMSO, lower = more inhibition	mean protein ratio	0.94
CCOC(=O)COc1ccc2c(=O)c3ccccc3oc2c1	ache (Electrophorus electricus, UniProt O42275)	enzyme activity, inhibitor, Lineweaver-Burk plot	–	1.68 µM	higher = faster reaction	Vmax	0.0048 a.u.
N#C[C@H](O[C@@H]1O[C@H](CO[C@@H]2O[C@H](CO)[C@@H](O)[C@H](O)[C@H]2O)[C@@H](O)[C@H](O)[C@H]1O)c1ccccc1	BGLU7 (Oryza sativa, UniProt Q75I93)	substrate	–	–	–	Km	5.86 ± 0.82 mM

SMILES	target	test	system	setting	scale	quantity	result
COc1cc(O)cc(/C=C/c2ccc(O)cc2)c1	O-methyltransferase (Sorghum bicolor, UniProt A0A1B6PFV1)	isothermal titration calorimetry	–	concentration not given, apo protein	–	-TΔS of binding	0.37 kcal/mol
Nc1nc2c(ncn2[C@@H]2O[C@@H]3COP(=O)(O)O[C@H]4[C@@H](O)[C@H](n5cnc6c(N)ncnc65)O[C@@H]4COP(=O)(O)O[C@H]4[C@@H](O)[C@H](n5cnc6c(N)ncnc65)O[C@@H]4COP(=O)(O)O[C@H]3[C@H]2O)c(=O)[nH]1	Thoeris anti-defense 1 (tad1, Bacillus phage SBSphiJ7, UniProt P0DW57)	native gel and ITC	–	concentration not given	–	binding	binds
CCCCCCCCCC(=O)CC(=O)N[C@H]1CCOC1=O	qscR DNA-bound	DNA binding, ligand, EMSA	–	saturating ligand	–	Hill slope	2.2
[2H]c1c([2H])c([C@]2([2H])CCCN2C(=O)C(C)(C)Oc2ccc3cn[nH]c3c2)c([2H])c([2H])c1C([2H])([2H])[2H]	CDK2 (Homo sapiens, UniProt P24941)	KINOMEscan	–	1 µM	baseline: DMSO control	remaining binding	100%
O=C[C@H](O)COP(=O)(O)O	TPI1 (Saccharomyces cerevisiae, UniProt P00942, Y208A)	substrate, GPDH/NADH-coupled	–	pH 5.7, 25 °C	–	kcat	~750 s⁻¹
CN(C(=O)n1cnc(-c2ccc[n+]([O-])c2)c1)C1CCCCC1	Abhd6	probe labelling, inhibitor, competitive ABPP	rat brain membrane fraction	100 µM, together with: azido-FP probe	–	inhibition	97.5%
COc1ncccc1-c1cnn2ccc(N3CCN(C(=O)OC(C)C)CC3)nc12	Ribosomal protein S6 kinase alpha-4, N-terminal kinase domain (RPS6KA4, Homo sapiens, UniProt O75676)	KINOMEscan binding	–	1 µM	baseline: untreated control	remaining binding	100%
COc1cc(N)c(Cl)cc1C(=O)NC1CN2CCC1CC2 (stereo not drawn)	OXGR1 (Homo sapiens, UniProt Q96P68)	β-arrestin recruitment, TANGO luminescence	–	concentration not given	baseline: basal luminescence	log2 fold change	0.241
CCCCC/C=C\C/C=C\C/C=C\C/C=C\CCCC(=O)NCCO	Trpv1 (Mus musculus, UniProt Q704Y3, E571S)	ion current, agonist, whole-cell patch clamp	–	E571S	–	Hill coefficient	3.37 ± 0.34
CC(C)[C@@H](O)CC[C@@H](C)[C@H]1CC[C@H]2[C@@H]3CC=C4C[C@@H](O)CC[C@]4(C)[C@H]3CC[C@]12C	Glutamate NMDA receptor; GRIN1/GRIN2B (GRIN1/GRIN2B, Homo sapiens, UniProt Q05586+Q13224, F654A)	positive allosteric modulator, two-electrode voltage clamp	Xenopus oocytes expressing GluN1-F654A	10 µM, 0.02% cremophor, together with: 100 µM glutamate and glycine	baseline: without compound	current response	149 ± 6.5%
COc1ccc(N2C(=O)N(c3c(C)cccc3Cl)Cc3cnc(Nc4ccc(C5CCN(C)CC5)cc4OC)nc32)nc1	PRKCA (Homo sapiens, UniProt P17252)	kinase activity, inhibitor	–	0.5 µM, kinase PKC-ALPHA	–	inhibition	3%
CC1(C)S[C@@H]2[C@H](/N=C/N3CCCCCC3)C(=O)N2[C@H]1C(=O)O	Penicillin-binding protein 2X (Streptococcus pneumoniae R6, UniProt P59676)	inhibitor	Streptococcus pneumoniae	–	–	kinact/KI	410 ± 58 M⁻¹ s⁻¹
CC12CCC(CC1)C(C)(C)O2	1,8-cineole 2-endo-monooxygenase (cinA, Citrobacter braakii, UniProt Q8VQF6, Y81F)	ITC	–	25 °C, Y81F protein	–	TΔS	18 ± 1.06 kcal/mol
O=c1onc2cnc3ccccc3n12	GUCY1B1, with alpha-1 subunit (Homo sapiens, UniProt Q02153)	–	human cells	concentration not given, basal conditions	–	cGMP level	no effect
C[C@H]1CN(c2n[nH]c3nc(N[C@H]4CC[C@H](NS(=O)(=O)CCC(F)(F)F)CC4)ncc23)CCO1	KSR1 (Homo sapiens, UniProt Q8IVT5)	inhibitor, Kinobeads competition profiling	–	0.8 µM	baseline: vehicle	relative abundance	1.3
Nc1ncnc2c1ncn2[C@@H]1O[C@H](COP(=O)(O)OP(=O)(O)OP(=O)(O)O)[C@@H](O)[C@H]1O	matB (Rhodopseudomonas palustris, UniProt Q6ND88, C106A/K488A/Q457C/R286C)	ATP binding	–	pH 7.0, 100 mM NaCl	baseline: bound over unbound	fluorescence ratio	3.9
Clc1cc2c(cc1Cl)Oc1cc(Cl)c(Cl)cc1O2	Uncharacterized protein (Takifugu rubripes, UniProt Q4JHL4)	reporter gene, agonist, dual-luciferase	COS-7	24 h	–	EC80	3.94 ± 2.53 nM
CN[C@@H]1C[C@H]2O[C@@](C)([C@@H]1OC)n1c3ccccc3c3c4c(c5c6ccccc6n2c5c31)C(=O)NC4	CDC2-like kinase 1 (Trypanosoma brucei brucei, UniProt Q382U0)	kinase activity, ADP-Glo	–	0.03906 µM	–	remaining activity	66.8%

Some of these lines once more:
SMILES	target	test	system	setting	scale	quantity	result
Nc1nc2c(ncn2[C@@H]2O[C@@H]3COP(=O)(O)O[C@H]4[C@@H](O)[C@H](n5cnc6c(N)ncnc65)O[C@@H]4COP(=O)(O)O[C@H]4[C@@H](O)[C@H](n5cnc6c(N)ncnc65)O[C@@H]4COP(=O)(O)O[C@H]3[C@H]2O)c(=O)[nH]1	Thoeris anti-defense 1 (tad1, Bacillus phage SBSphiJ7, UniProt P0DW57)	native gel and ITC	–	concentration not given	–	binding	binds
CCCCCCCCCC(=O)CC(=O)N[C@H]1CCOC1=O	qscR DNA-bound	DNA binding, ligand, EMSA	–	saturating ligand	–	Hill slope	2.2
[2H]c1c([2H])c([C@]2([2H])CCCN2C(=O)C(C)(C)Oc2ccc3cn[nH]c3c2)c([2H])c([2H])c1C([2H])([2H])[2H]	CDK2 (Homo sapiens, UniProt P24941)	KINOMEscan	–	1 µM	baseline: DMSO control	remaining binding	100%
O=C[C@H](O)COP(=O)(O)O	TPI1 (Saccharomyces cerevisiae, UniProt P00942, Y208A)	substrate, GPDH/NADH-coupled	–	pH 5.7, 25 °C	–	kcat	~750 s⁻¹
CN(C(=O)n1cnc(-c2ccc[n+]([O-])c2)c1)C1CCCCC1	Abhd6	probe labelling, inhibitor, competitive ABPP	rat brain membrane fraction	100 µM, together with: azido-FP probe	–	inhibition	97.5%
COc1ncccc1-c1cnn2ccc(N3CCN(C(=O)OC(C)C)CC3)nc12	Ribosomal protein S6 kinase alpha-4, N-terminal kinase domain (RPS6KA4, Homo sapiens, UniProt O75676)	KINOMEscan binding	–	1 µM	baseline: untreated control	remaining binding	100%
